Experimental data of several laboratories.
Compare with care: the assays were run in different laboratories. “And” joins repeats or separate records; there may be more than shown.

CC(C)CC(=O)Nc1ccc(C2CCCCC2)cc1
hepatic clearance (hepatocyte stability; cryopreserved mouse hepatocytes; 1 µM): 69 mL/min/kg

C=C(NC(=O)c1csc(-c2nc3c(cc2O)-c2nc(cs2)C(=O)NC(C(C)O)C(=O)NC(=C(C)OC)c2nc(cs2)C(=O)NC2c4nc(cs4)C(=O)NC(COC(=O)c4c5c6c(cccc6n4O)COC(=O)C(OC4CC(C)(O)C(N(C)C)C(C)O4)C2OC5)c2nc-3cs2)n1)C(N)=O (stereo not drawn)
volume of distribution (Sprague-Dawley rat, male, plasma; intravenous infusion, 2 mg/kg single dose): 9.3 L/kg

Cc1nn(-c2nc3c(F)cc(F)cc3s2)c(O)c1C(c1ccc(C(F)(F)F)cc1)c1c(C)nn(-c2nc3c(F)cc(F)cc3s2)c1O
C0 (ICR mouse, plasma; intravenous, 5 mg/kg): 11700 ng/mL and 8640 ng/mL and 23100 ng/mL

O=C(CCC(F)(F)F)Nc1ccc([C@H]2[C@@H](F)[C@@H](F)C[C@@H](F)[C@H]2F)cc1
hepatic clearance (liver microsome stability; rat liver microsomes; 1 µM): 13 mL/min/kg

CC[C@H](C)[C@@H]1NC(=O)[C@H](Cc2ccc(O)cc2)NC(=O)CCCSC[C@@H](C(=O)N(CC(=O)N[C@@H](CC(C)C)C(=O)NCC(N)=O)Cc2ccc(F)cc2)NC(=O)[C@H](CC(N)=O)NC(=O)[C@H](CCC(N)=O)NC1=O
AE leading to discontinuation (human; intranasal, 5 µg single dose): 0%

CC(C)OCCOCc1ccc(OCC(O)CN(N=O)C(C)C)cc1 (stereo not drawn)
C>T mutation frequency (duplex sequencing; NMRI mouse, bone marrow; concentration not given): increased

O=C(Nc1cnccc1-c1ccc([18F])cc1)c1ccnc(NC(=O)C2CC2)c1
mean SUV (ex vivo biodistribution, gamma counting; GSK-3β overexpressing transgenic mouse, late stage, brain stem; intravenous, 120 min post-injection, added: tariquidar 15 mg/kg iv, at least 120 min before tracer): 0.24

Cc1ccc(-c2ccc(C3CCCCC3)cc2)cn1
hepatic clearance (liver microsome stability; dog liver microsomes; 1 µM): 29 mL/min/kg

CN1CCC[C@]1(C)/C=C/S(=O)(=O)NC(=O)Nc1c2c(cc3c1CCC3)CCC2
subjects with adverse event (item: Pyrexia, possibly related; human; oral, 12.5 mg twice daily, 14 days, multiple ascending dose): 0%

C[C@@H](Nc1c(-c2c(F)cc(C#N)cc2F)c(Cl)nc2ncnn12)C(C)(C)C
hepatic intrinsic clearance (human liver microsomes; 2 µg/mL, pH 7.4): 0.33 mL/min/kg

COc1ccc(Nc2nc(Nc3ccc(OCCOCC[18F])cc3)ncc2Br)cc1
uptake ratio (ICR mice, S180 tumour; intravenous, 370 kBq, 60 min; baseline: tumour over bone): 1

CC(C)(O)Cn1nc(-c2ccccc2)c2c(Cl)c(-c3ccccc3)nnc21
AUC (mouse juvenile P20, plasma; intraperitoneal, 30 mg/kg): 5.94 µM·h

COc1cccc(OC)c1-c1cc(C(=O)NC2(C(=O)O)C3CC4CC(C3)CC2C4)nn1-c1ccc(C(=O)N(C)CCCN(C)C(=O)[C@H](CCCCNC(=O)[C@H](CC(C)C)NC(=O)C2OC2C(=O)O)NC(=O)CN2CCN(CC(=O)[O-])CCN(CC(=O)[O-])CCN(CC(=O)[O-])CC2)cc1C(C)C.[177Lu+3] (mixture of isomers)
tumour-to-blood ratio (mouse, HT-29 xenograft; 24 h post injection, biodistribution; baseline: tumour over blood uptake): 20.3

O=C(CN1CN(c2ccccc2)C2(CCN(C(=O)c3ccc4[nH]ncc4n3)CC2)C1=O)NCC(F)(F)F
CLint (mouse liver microsomes): 120 µL/min/mg protein

O=C(Nc1ccc(C2CCCCC2)cc1)C1CC1
hepatic clearance (liver microsome stability; rat liver microsomes; 1 µM): 52 mL/min/kg

COc1cccc(OC)c1-c1cc(C(=O)NC2(C(=O)O)C3CC4CC(C3)CC2C4)nn1-c1ccc(C(=O)NCCNC(=O)[C@H](CCCCNC(=O)[C@H](CC(C)C)NC(=O)C2OC2C(=O)O)NC(=O)CN2CCN(CC(=O)[O-])CCN(CC(=O)[O-])CCN(CC(=O)[O-])CC2)cc1C(C)C.[177Lu+3] (mixture of isomers)
tumour-to-kidney ratio (mouse, HT-29 xenograft; 168 h post injection, biodistribution; baseline: tumour over kidney uptake): 2.72

O=C(COCC(F)F)Nc1ccc([C@H]2[C@@H](F)[C@@H](F)C[C@@H](F)[C@H]2F)cc1
hepatic clearance (liver microsome stability; rat liver microsomes; 1 µM): 17 mL/min/kg

CCN(CC)c1ccc2c(c1)O[B-]1(c3ccc(C)cc3)OC(=O)C(c3ccccc3)=N[N+]1=C2 (stereo not drawn)
fluorescence quantum yield (toluene): 0.66

Excerpt of the above:
CC(C)OCCOCc1ccc(OCC(O)CN(N=O)C(C)C)cc1 (stereo not drawn)
C>T mutation frequency (duplex sequencing; NMRI mouse, bone marrow; concentration not given): increased

Cc1ccc(-c2ccc(C3CCCCC3)cc2)cn1
hepatic clearance (liver microsome stability; dog liver microsomes; 1 µM): 29 mL/min/kg

Cc1nn(-c2nc3c(F)cc(F)cc3s2)c(O)c1C(c1ccc(C(F)(F)F)cc1)c1c(C)nn(-c2nc3c(F)cc(F)cc3s2)c1O
C0 (ICR mouse, plasma; intravenous, 5 mg/kg): 11700 ng/mL and 8640 ng/mL and 23100 ng/mL
